Measurements of several laboratories.
Compare with care: the assays were run in different laboratories. ± marks the error that the study gave.
Organism: Staphylococcus aureus

Compound	test	system	setting	how to read	endpoint	value
C[C@H]1COc2c(N3CCN(C)CC3)c(F)cc3c(=O)c(C(=O)N[C@@H](CCCNC(=N)N)C(=O)N[C@@H](Cc4ccc(-c5ccccc5)cc4)C(=O)N[C@@H](CCCNC(=N)N)C(=O)N[C@@H](Cc4ccc(-c5ccccc5)cc4)C(=O)N[C@@H](CCCNC(=N)N)C(N)=O)cn1c23	–	ATCC BAA-44	–	relative to: IC50 MDCK cells over MIC	selectivity index	4.4
Cc1cc(=O)nc(NC(=O)NCCCCCCNC(=O)NCCCCCCNC(=O)OCCOCCOCCOCCOCCOCCOCC(=O)N[C@@H](CCCCN)C(=O)N[C@@H](CCCCN)C(=O)N[C@@H](Cc2ccccc2)C(=O)N2CCC[C@H]2C(=O)N[C@@H](Cc2c[nH]c3ccccc23)C(=O)N[C@@H](Cc2c[nH]c3ccccc23)C(=O)N[C@@H](Cc2c[nH]c3ccccc23)C(=O)N2CCC[C@H]2C(=O)N[C@@H](Cc2ccccc2)C(=O)N[C@@H](CCCCN)C(=O)N[C@@H](CCCCN)C(N)=O)[nH]1	–	MRSA AMC 201, RPMI medium	24 h, 37 °C	–	LC99.9	30 µM
CC(CCCOC(=O)CCC[N+](C)(C)C)C1CCC2C3CCC4CC(OC(=O)CCC[N+](C)(C)C)CCC4(C)C3CCC12C (stereo not shown)	–	MRSA ATCC BAA-44, mouse red blood cells	–	relative to: HC50 over MIC	selectivity index	20
C=Cc1cc(OC)c2c(c1)c(=O)oc1c2cc(OC)c2c(O)ccc([C@@H]3O[C@H](C)[C@H](O)[C@@](C)(O)[C@H]3O)c21	measured: muramic acid	Newman	1 x MIC	relative to: DMSO	peptidoglycan reduction	93.3%
O=[N+]([O-])[O-].S=c1[nH]cnc2[nH]cnc12.[Ag+].c1ccc(P(c2ccccc2)c2ccccc2)cc1.c1ccc(P(c2ccccc2)c2ccccc2)cc1	–	MTCC 740, DMSO	0.1 mL of 50 mg/mL in 8 mm well, 18 to 24 h	–	inhibition zone diameter	12 mm
CCCCc1ccc(-c2nc(C)c(C(C)=NNC(=N)N)s2)cc1	–	NRS119 MRSA	–	–	MBC	2.6 µg/mL
CCc1[nH]c(C(=O)N[C@@H]2CCN(c3nnc(C(C)(C)O)s3)C[C@@H]2OC)nc1Cl	–	MRSA ATCC 43300, mice, sepsis model	intragastric, 10 mg/kg, day 7	–	survival	25%
S=C(NCc1ccccn1)NCc1ccccn1	microbial growth, well diffusion	–	30 µg/mL	–	inhibition zone	23 mm
CC(C)C[C@H](NC(=O)[C@H](C)NC(=O)[C@@H](N)C(C)C)C(=O)N[C@@H](CC(=O)O)C(=O)N[C@@H](CC(C)C)C(=O)N[C@@H](CC(C)C)C(=O)N[C@@H](CCC(N)=O)C(=O)N[C@@H](Cc1ccc(O)cc1)C(=O)O	OD600	ATCC 25923	concentration not given, 18 to 22 h, 37 °C, unheated	–	growth inhibition	45.7%
CN1CC(=O)N=C1N.C[C@H](CCC(=O)O)[C@H]1CC[C@H]2[C@@H]3CC[C@@H]4C[C@H](O)CC[C@]4(C)[C@H]3C[C@H](O)[C@]12C	–	TISTR 746	1 mg per disc, 18 to 24 h, 37 °C, 6 mm disc	–	inhibition zone diameter	11.5 ± 1.8 mm
CCCCCCc1ccc(Oc2ccccc2C#N)c(O)c1	–	RN4220	4 x MIC, 1 h exposure, 37 °C	–	post-antibiotic effect	1.03 ± 0.17 h
CCOC(=O)c1sc(N/N=C/c2c(-c3ccccc3)nc3ncccn23)nc1C	microbial growth, well diffusion	ATCC23235	100 µg/mL	–	inhibition zone	13 mm
C[C@@H](O)[C@H](N)C(=O)N[C@@H](CS)C(=O)N[C@@H](Cc1ccc(O)cc1)C(=O)N[C@@H](CS)C(=O)N[C@@H](CCCNC(=N)N)C(=O)N[C@H](C(=O)NCC(N)=O)[C@@H](C)O	virtual colony-count	MRSA ATCC 43300	–	relative to: MRSA over susceptible S. aureus	EC50 ratio	10 fold
Fc1ccc2nc3c4cccnc4c4ncccc4c3nc2c1.[Cl-].[Cl-].[Ru+2].c1ccncc1.c1ccncc1.c1ccncc1.c1ccncc1	–	MRSA ATCC 43300	LED irradiation 470 nm	–	MIC90	4 µM
CCCCCCCCCCCCCCCCNC(=N)NC(=N)NCCCCCCNC(=O)[C@H]1NC(=O)[C@H]2NC(=O)[C@H](NC(=O)[C@@H]3NC(=O)[C@H](CC(N)=O)NC(=O)[C@H](NC(=O)[C@@H](CC(C)C)NC)[C@H](O)c4ccc(c(Cl)c4)Oc4cc3cc(c4O[C@@H]3O[C@H](CO)[C@@H](O)[C@H](O)[C@H]3O[C@H]3C[C@](C)(N)[C@H](O)[C@H](C)O3)Oc3ccc(cc3Cl)[C@H]2O)c2ccc(O)c(c2)-c2c(O)cc(O)cc21	–	29213	biofilm	–	MBEC	> 128 µM
CC[C@H](C)[C@H](NC(=O)CNC(=O)CNC(=O)[C@H](CO)NC(=O)[C@@H](NC(=O)[C@H](CCCCN)NC(=O)[C@H](CO)NC(=O)[C@@H](N)CC(C)C)[C@@H](C)CC)C(=O)NCC(=O)N1CCC[C@H]1C(=O)N[C@@H](CC(C)C)C(=O)N[C@H](C(=O)N[C@H](C(=O)N1CCC[C@H]1C(=O)N[C@H](C(N)=O)C(C)C)[C@@H](C)CC)C(C)C	–	ATCC 25923	MIC, 2 h	–	log reduction in CFU	2 log
CC(C)C1=C(OC(=O)Cc2ccccc2)C(=O)C2=C(C=C[C@H]3C(C)(C)CCC[C@]23C)C1=O	–	CIP 106760 MRSA	–	–	MBC	< 72.2 µM
CC(C)C[C@H](NC(=O)[C@H](CC(C)C)NC(=O)[C@H](CCCCN)NC(=O)[C@H](CC(C)C)NC(=O)[C@H](CC(C)C)NC(=O)[C@H](CCCCN)NC(=O)[C@H](CCCCN)NC(=O)[C@H](CC(C)C)NC(=O)[C@H](CC(C)C)NC(=O)[C@H](CCCCN)NC(=O)[C@H](CCCCN)NC(=O)[C@H](CC(C)C)NC(=O)[C@H](CC(C)C)NC(=O)[C@H](CCCCN)NC(=O)[C@@H](N)CC(C)C)C(N)=O	–	MRSA AMC 201, RPMI medium	24 h, 37 °C	–	LC99.9	3.7 µM
c1ccc(CN2CCOCCOCCN(CCCCCCCCCCCCCCN3CCOCCOCCN(CCCCCCCCCCCCCCN4CCOCCOCCN(Cc5ccccc5)CCOCCOCC4)CCOCCOCC3)CCOCCOCC2)cc1	ethidium bromide activity	1199B	half MIC, together with: ethidium bromide	relative to: ethidium bromide alone	fold enhancement	32 fold
NCCCC[C@H](NC(=O)[C@H](CCCCN)NC(=O)[C@H](Cc1ccccc1)NC(=O)[C@@H]1CCCN1C(=O)[C@H](Cc1c[nH]c2ccccc12)NC(=O)[C@H](Cc1c[nH]c2ccccc12)NC(=O)[C@H](Cc1c[nH]c2ccccc12)NC(=O)[C@@H]1CCCN1C(=O)[C@H](Cc1ccccc1)NC(=O)[C@H](CCCCN)NC(=O)[C@@H](N)CCCCN)C(N)=O	–	MRSA AMC 201, RPMI medium	24 h, 37 °C	–	LC99.9	30 µM
CC[C@H](C)[C@H](NC(=O)[C@H](CCCCN)NC(=O)[C@H](CCCCN)NC(=O)[C@H](CC(C)C)NC(=O)[C@H](CCCCN)NC(=O)[C@H](CCC(=O)O)NC(=O)[C@H](CCCCN)NC(=O)[C@@H](NC(=O)[C@H](CCCCN)NC(=O)[C@H](CC(N)=O)NC(=O)[C@H](CCCNC(=N)N)NC(=O)[C@H](Cc1ccccc1)NC(=O)[C@H](CCCCN)NC(=O)[C@H](CCCNC(=N)N)NC(=O)[C@H](CC(C)C)NC(=O)[C@H](CCCNC(=N)N)NC(=O)[C@H](CCCCN)NC(=O)[C@H](CCCNC(=N)N)NC(=O)[C@@H](N)CC(C)C)[C@@H](C)CC)C(=O)NCC(=O)N[C@@H](CCC(N)=O)C(=O)N[C@@H](CCCCN)C(=O)N[C@H](C(=O)N[C@@H](CCC(N)=O)C(=O)NCC(=O)N[C@@H](Cc1ccccc1)C(=O)N[C@H](C(=O)N1CCC[C@H]1C(=O)N[C@@H](CCCCN)C(=O)N[C@@H](CC(C)C)C(=O)O)C(C)C)[C@@H](C)CC	inhibition zone	MRSA P1374	–	–	lethal concentration	1.46 µM
CC[C@H](C)[C@H](NC(=O)[C@H](CCCN)NC(=O)[C@H](CC(N)=O)NC(=O)[C@H](Cc1c[nH]c2ccccc12)NC(=O)[C@H](Cc1ccccc1)NC(=O)[C@H](CCCN)NC(=O)[C@H](CCCCNC(=N)N)NC(=O)[C@H](CC(C)C)NC(=O)[C@H](Cc1c[nH]c2ccccc12)NC(=O)[C@H](CCCN)NC(=O)[C@H](CCCCNC(=N)N)NC(=O)[C@H](CC(C)C)NC(=O)CNC(C)=O)C(=O)N[C@@H](CCCN)C(=O)N[C@@H](CCCCNC(=N)N)C(N)=O	crystal violet staining	–	4 × MIC, 24 h	–	biofilm formation inhibition	≤ 42.9%

Some of these lines once more:
Compound	test	system	setting	how to read	endpoint	value
NCCCC[C@H](NC(=O)[C@H](CCCCN)NC(=O)[C@H](Cc1ccccc1)NC(=O)[C@@H]1CCCN1C(=O)[C@H](Cc1c[nH]c2ccccc12)NC(=O)[C@H](Cc1c[nH]c2ccccc12)NC(=O)[C@H](Cc1c[nH]c2ccccc12)NC(=O)[C@@H]1CCCN1C(=O)[C@H](Cc1ccccc1)NC(=O)[C@H](CCCCN)NC(=O)[C@@H](N)CCCCN)C(N)=O	–	MRSA AMC 201, RPMI medium	24 h, 37 °C	–	LC99.9	30 µM
CCCCc1ccc(-c2nc(C)c(C(C)=NNC(=N)N)s2)cc1	–	NRS119 MRSA	–	–	MBC	2.6 µg/mL
C=Cc1cc(OC)c2c(c1)c(=O)oc1c2cc(OC)c2c(O)ccc([C@@H]3O[C@H](C)[C@H](O)[C@@](C)(O)[C@H]3O)c21	measured: muramic acid	Newman	1 x MIC	relative to: DMSO	peptidoglycan reduction	93.3%
CC(C)C[C@H](NC(=O)[C@H](CC(C)C)NC(=O)[C@H](CCCCN)NC(=O)[C@H](CC(C)C)NC(=O)[C@H](CC(C)C)NC(=O)[C@H](CCCCN)NC(=O)[C@H](CCCCN)NC(=O)[C@H](CC(C)C)NC(=O)[C@H](CC(C)C)NC(=O)[C@H](CCCCN)NC(=O)[C@H](CCCCN)NC(=O)[C@H](CC(C)C)NC(=O)[C@H](CC(C)C)NC(=O)[C@H](CCCCN)NC(=O)[C@@H](N)CC(C)C)C(N)=O	–	MRSA AMC 201, RPMI medium	24 h, 37 °C	–	LC99.9	3.7 µM
